Results collected from several papers.
Every numbered part comes from another study and shows a few of its results, in no order.

Set 1 — technique: aptamer microarray, sandwich; molecule type: DNA with 2'F-ANA; matrix: in vitro; concentration: 200 nM; together with: Cy3 exosite-II aptamer, 400 nM; reading: higher = stronger binding; sequence: GGTTGGTGTGGTTGG
Target: Prothrombin, mature alpha-thrombin (F2, Homo sapiens, UniProt P00734)
Notes: whole 15-mer aptamer, many near background
Modification	mean fluorescence intensity
2'F-ANA at 2 3 4 5 6 8 9 14 15	48 a.u.
2'F-ANA at 5 6 7 8 9 11 12 13 14 15	156 a.u.
2'F-ANA at 3 7 10 11 12	704 a.u.
2'F-ANA at 2 4 5 6 7 8 9 11 12	131 a.u.
2'F-ANA at 2 5 6 8 9 10 13	48.4 a.u.
2'F-ANA at 1 4 7 11 14 15	53.2 a.u.

Set 2 — technique: protein-binding microarray; molecule type: double-stranded DNA, one strand shown; matrix: in vitro; concentration: 250 nM; notes: 60-bp whole probe; together with: salmon DNA 0.4 mg/ml; baseline: random background probes; reading: higher = stronger binding; constant ends, left off below: GCCTAGCAC … GTCTTGATTCGCTTGACGCTGCTG
Target: Interferon regulatory factor 7, full length, phosphomimetic (IRF7, Homo sapiens, UniProt Q92985, residues 1-503, S101K/S471D/S472D/S475D/S476D/S477D/S483D/S484D/S487D)
Chain of UniProt Q92985 (whole entry, unmodified, looked up): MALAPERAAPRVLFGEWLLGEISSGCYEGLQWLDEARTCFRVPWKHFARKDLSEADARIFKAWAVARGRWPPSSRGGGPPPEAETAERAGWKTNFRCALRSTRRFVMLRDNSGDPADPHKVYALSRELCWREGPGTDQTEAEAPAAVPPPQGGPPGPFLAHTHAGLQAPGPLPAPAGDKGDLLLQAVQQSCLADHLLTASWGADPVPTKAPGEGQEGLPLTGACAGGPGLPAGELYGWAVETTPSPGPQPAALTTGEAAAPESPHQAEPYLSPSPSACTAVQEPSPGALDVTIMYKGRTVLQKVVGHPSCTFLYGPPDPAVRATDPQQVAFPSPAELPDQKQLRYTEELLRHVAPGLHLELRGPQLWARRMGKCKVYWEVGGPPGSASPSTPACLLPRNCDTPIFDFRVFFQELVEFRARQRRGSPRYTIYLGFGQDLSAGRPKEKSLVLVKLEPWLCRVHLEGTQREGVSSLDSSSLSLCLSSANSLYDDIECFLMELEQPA
Sequence	log fluorescence
TTAGAACAGAGTATCGATTAGTGCTAG	0.618 z-score
CTAACTTTCCAATTGTCCTTGTGCTAG	2.34 z-score
TTAGGACTGGAAACTGGGTTAGTGCTA	-0.0606 z-score
CTGGCCTGGGGTCTGCAGAGGTGCTAG	-0.833 z-score
GACGGTTTCGGGATTGGGGACGTGCTA	7.13 z-score
GACGGTTCCTTTTTCCTGACGTGCTAG	2.4 z-score

Set 3 — technique: protein binding microarray; molecule type: double-stranded DNA, one strand shown; matrix: in vitro; concentration: not given; baseline: not given; reading: higher = stronger binding
Target: Histone acetyltransferase KAT6A, both winged helices, GST fusion (KAT6A, Homo sapiens, UniProt Q92794, residues 1-181)
Notes: 8-mer, flanks averaged, mean of 2 arrays, mostly near background
Construct (chain): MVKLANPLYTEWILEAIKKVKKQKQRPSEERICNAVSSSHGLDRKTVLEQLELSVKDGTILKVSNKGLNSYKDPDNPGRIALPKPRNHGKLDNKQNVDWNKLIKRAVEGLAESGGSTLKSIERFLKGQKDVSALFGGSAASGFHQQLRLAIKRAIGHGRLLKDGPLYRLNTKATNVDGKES
Sequence	E-score
AATTAGGC	-0.163
ACTGAGGA	-0.0907
CAAATGCA	-0.102
GACATCGC	0.2
CCACACGC	0.0536
CGTCTATA	0.0471
ACGTGCTC	-0.0441

Mixed results
Substance	target	assay	test system	conditions	scale	measurement	value
PhoQ, residues 284 288 289 292 302 303 TLMATV	PhoP, residues 12 14 15 18 19 NQGLL (Escherichia coli, UniProt P23836)	Sort-seq, refers to: YFP reporter	E. coli	PhoQ-PhoP variant library, together with: 10 µM Mg2+	baseline: high Mg2+ state, higher = stronger signaling	fold induction	11.9

For quick reference, copied from above (set 3):
Sequence	E-score
ACGTGCTC	-0.0441
